Experimental data gathered from unrelated publications.
Each numbered part is a random draw from the data of one study; scales do not carry over between parts. Substitutions count along the parent as printed.

Sample 1 — technique: protein-binding microarray; molecule type: double-stranded DNA, one strand shown; medium: in vitro; tested at: 2200 nM top; notes: 60-bp whole probe; added: salmon DNA 0.4 mg/ml; baseline: random background probes; direction: higher = stronger binding; all sequences stand within: GCCTAGCAC … GTCTTGATTCGCTTGACGCTGCTG
Target: Interferon regulatory factor 7, full length, phosphomimetic (IRF7, Homo sapiens, UniProt Q92985, residues 1-503, S471D/S472D/S475D/S476D/S477D/S483D/S484D/S487D)
Construct (chain): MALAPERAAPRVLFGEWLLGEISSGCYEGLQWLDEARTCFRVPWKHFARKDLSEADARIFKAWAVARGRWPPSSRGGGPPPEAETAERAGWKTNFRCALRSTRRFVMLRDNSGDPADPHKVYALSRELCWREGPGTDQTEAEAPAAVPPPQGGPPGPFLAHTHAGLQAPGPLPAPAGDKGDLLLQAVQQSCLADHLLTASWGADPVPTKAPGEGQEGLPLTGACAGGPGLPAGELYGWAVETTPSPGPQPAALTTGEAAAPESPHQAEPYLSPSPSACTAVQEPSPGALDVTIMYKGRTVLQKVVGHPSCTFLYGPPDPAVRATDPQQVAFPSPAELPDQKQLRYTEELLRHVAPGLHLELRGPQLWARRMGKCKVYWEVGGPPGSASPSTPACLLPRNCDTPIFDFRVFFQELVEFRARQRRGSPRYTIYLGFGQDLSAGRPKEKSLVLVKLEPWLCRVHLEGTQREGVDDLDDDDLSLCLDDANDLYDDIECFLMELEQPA
Sequence | fitted relative affinity
TTAGGTTTCGGTTCCGGTAAGTGCTAG | 11.3 z-score
TCAATTATGAGTCTTGAACTGTGCTAG | -0.208 z-score
CTAGATTTCAGTCTCGATTAGTGCTAG | 1.03 z-score
ATTATGTTTGCTTTGTTCTGGTGCTAG | 1.99 z-score
CCATCTCTGCTCCTTCTGACAGTGCTA | 1.57 z-score
TTAGGTTTAGGTTCCGGTTAGTGCTAG | 1.54 z-score

Sample 2 — technique: protein binding microarray; molecule type: double-stranded DNA, one strand shown; medium: in vitro; tested at: not given; baseline: not given; direction: higher = stronger binding
Target: Histone acetyltransferase KAT6A, winged helix 2, GST fusion (KAT6A, Homo sapiens, UniProt Q92794, residues 85-181)
Notes: 8-mer, flanks averaged, mean of 2 arrays, mostly near background
Target sequence (chain): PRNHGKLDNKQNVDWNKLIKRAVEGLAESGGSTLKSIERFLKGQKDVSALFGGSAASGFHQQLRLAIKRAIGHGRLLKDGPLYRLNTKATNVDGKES
Sequence | E-score
ACACCACG | -0.123
AAGTTAAG | -0.278
AATCAAGT | -0.0233
AAGTGATA | -0.2
CGCGCCCC | 0.215
ACGCCAAT | 0.0178
CTTTAACC | -0.0965
CACGACGC | 0.0703

Sample 3 — target: CCNA1, cyclin fold, Cln2 fusion (human); technique: yeast growth competition, sequencing; medium: yeast; notes: weak parent motif; baseline: not given; direction: higher = stronger binding
Starting sequence: E2F1 docking peptide (human); PPVKRRLDLETDH
Change | normalised enrichment score
D12C | 0.53
R5P | -0.149
R6W | 0.437
V3S | 0.533
H13K | 0.631
V3I | 0.157
D12Q | 1.21

Mixed results
Molecule | target | test | system | conditions | how to read | measurement | value
PhoQ, residues 284 288 289 292 302 303 NLMGRA | PhoP, residues 12 14 15 18 19 SEGLL (Escherichia coli, UniProt P23836) | Sort-seq, refers to: YFP reporter | E. coli | PhoQ-PhoP variant library, added: 10 µM Mg2+ | baseline: high Mg2+ state, higher = stronger signaling | fold induction | 14.9

A few entries again (sample 1):
Sequence | fitted relative affinity
TTAGGTTTCGGTTCCGGTAAGTGCTAG | 11.3 z-score
TCAATTATGAGTCTTGAACTGTGCTAG | -0.208 z-score
TTAGGTTTAGGTTCCGGTTAGTGCTAG | 1.54 z-score
